Measured values of several laboratories.
Numbered parts are unrelated; each lists some results of a single study.

Block 1
Target: Interferon regulatory factor 5, full length, phosphomimetic (IRF5, Homo sapiens, UniProt Q13568-2, residues 1-514, K96S/S451D/S453D/S456D/S462D)
Technique: protein-binding microarray
Form: double-stranded DNA, one strand shown
Medium: in vitro
Tested at: 250 nM
Setting: 60-bp whole probe
Together with: salmon DNA 0.4 mg/ml
Relative to: random background probes
Reading: higher = stronger binding
Constant ends, left off below: GCCTAGCAC … GTGCTAGGTCTTGATTCGCTTGACGCTGCTG
Oligonucleotide | log fluorescence [z-score]
TAAGGACTGGGTTTCGGTTA | 8.28
GAAGATATCAGACTGGAGAC | 0.152
TTAGATTCCAGTTTCGATTA | 9.49
TCCAATTCTCTTTTCACTTT | 1.86
GACGATTTCATTTTCGAGAC | 4.08

Block 2
Target: RNA binding protein fox-1 homolog 2, RRM domain, GST-SBP tag (RBFOX2, Homo sapiens, UniProt O43251-10, residues 100-194)
Technique: RNA Bind-n-Seq
Form: RNA
Medium: in vitro
Tested at: 365 nM
Setting: natural RNA segment, single round, ends assumed
Relative to: no-protein control
Reading: higher = stronger binding
Constant ends, left off below: GGGAGUUCUACAGUCCGACGAUC … UGGAAUUCUCGGGUGCCAA
Target sequence (chain): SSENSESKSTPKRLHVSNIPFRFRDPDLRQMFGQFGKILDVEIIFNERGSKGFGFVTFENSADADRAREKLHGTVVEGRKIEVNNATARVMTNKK
Oligonucleotide | RBNS enrichment (R)
UUCCCUUCCUUAUGUCUCCAGUCUGGUGCCAGGUAGUGGAGUAAAAAAGGAGACAGUUUAUUUUUUUAUUCUAUGUGCACACUUACAGUAUACAUAUAUAUUUAUAUCAC | 0.985
CUUUAGCAUUACUUAUUUUUUUUUCCAUUUGAUGGUUCUUACUUUGUAAAAAUUUAAAUAAAUGAAUGUCUAUACUUUUUAUAAAGAAAAGUGAAAAUACCAUGACACUG | 0.934
CCUCAGAAAGAGACAGAAUAAAAAAAUUGUUCCCCAUGGUACAGCUGGAAAAAUUAAGGGGAAAAGAGAUUAAGUGGUCCCCAAUGGAACACAGCUGUCUUAUGCAGGGC | 0.618
UAAUAACCUGGUUAUCUACCUGUUCCAUUCCAUGGAACCAUGGAGGAGGAAGACCCUCAGUUAUUUUGUCACCCAACCUGGCAUAGGACUCUUUGGUCCUACCCGCUUCC | 0.276
GCGUUGUCCACUUUGUGGGGCUUUGUAGGUAGACGGAGCCACACUACAGGCAGGGUAUGAGCAGAGGGAUGUAUGGAGUGUGGGUGACUCUGAGCCUCACUGCUGCUGCA | 3.83
CAUAUUCUCUGUCAGCAGCAGCACUCCCACACCAGGUGGUUCUGGGCUCUCUGUAGGCUGGUCCUAGUAGGUGACACCCAGCAACACCCCUGUUGGACAGGAUUGAUUGU | 0.361
UUGCUGGCCGCCUUCAGAAUCGGGGGGAGUUUAGUCUGAGACAUCCCUGCUCCCCCUUUUUUCAAGUGCCUUAAUAGCAGGGCAAACUGUAGAGUCAGGAGGGCAGGCUA | 0.329

Block 3
Target: Histone acetyltransferase KAT6A, winged helix 2, GST fusion (KAT6A, Homo sapiens, UniProt Q92794, residues 85-181)
Technique: protein binding microarray
Form: double-stranded DNA, one strand shown
Medium: in vitro
Tested at: not given
Setting: 8-mer, flanks averaged, mean of 2 arrays, mostly near background
Relative to: not given
Reading: higher = stronger binding
Target sequence (chain): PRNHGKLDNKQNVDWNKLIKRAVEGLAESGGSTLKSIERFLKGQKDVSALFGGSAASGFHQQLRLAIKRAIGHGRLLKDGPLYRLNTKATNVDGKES
Oligonucleotide | E-score
TACCCTCA | -0.0849
CGGTCAGA | 0.0627
ATACCGGA | -0.0154
GCTCATAA | 0.0171
ATTCTTAG | -0.159
CTAATCTC | 0.0251

Further values, each from its own experiment
Substance | target | test | system | setting | scale | measurement | result
PhoQ, residues 284 288 289 292 302 303 TVTVVA | PhoP, residues 12 14 15 18 19 TTLRV (Escherichia coli, UniProt P23836) | Sort-seq, item: YFP reporter | E. coli | PhoQ-PhoP variant library, together with: 10 µM Mg2+ | relative to: high Mg2+ state, higher = stronger signaling | fold induction | 6.81
